Results gathered from unrelated publications.
A part holds a random share of what one study measured. Changes are numbered by the printed parent chain.

Sample 1
Target: Interferon regulatory factor 5, full length, phosphomimetic (IRF5, Homo sapiens, UniProt Q13568-2, residues 1-514, K96S/S451D/S453D/S456D/S462D)
Method: protein-binding microarray
Form: double-stranded DNA, one strand shown
Medium: in vitro
Tested at: 250 nM
Notes: 60-bp whole probe
Together with: salmon DNA 0.4 mg/ml
Relative to: random background probes
Direction: higher = stronger binding
Measurement: log fluorescence
Shared flanks, not repeated: GCCTAGCAC … GTCTTGATTCGCTTGACGCTGCTG
Strand = TTAGGTCTCCTTATCGTTTAGTGCTAG; result = 0.568 z-score
Strand = TCACCACTCTTTCCTCACACTGTGCTA; result = 0.624 z-score
Strand = GAGGATATCAGACTGGAGACGTGCTAG; result = -0.28 z-score
Strand = GACGGTCTCGGTTTCAGGACGTGCTAG; result = 1.04 z-score
Strand = TTTGGTTTCCTTTCCCTTTAGTGCTAG; result = 2.59 z-score
Strand = TACGGACTGCTACTGCTGACGTGCTAG; result = -0.587 z-score
Strand = GACGGTATCGGGACTGGCGACGTGCTA; result = 1.08 z-score
Strand = TAAGGTTTCGGTTTCGGTTAGTGCTAG; result = 12 z-score
Strand = TCAAGTTCAGTTCTCTAACTGTGCTAG; result = -0.139 z-score
Strand = GACGATATCGGGTATCGAGACGTGCTA; result = 2.7 z-score
Strand = TTTGATATCAGTATCGATTAGTGCTAG; result = 8.37 z-score
Strand = TTAGATATCGGGTTTCTATTAGTGCTA; result = 3.48 z-score
Strand = TTAGGTCTCCTTCACCTTTAGTGCTAG; result = -0.17 z-score
Strand = TCAAATATATATATTATACTGTGCTAG; result = 0.606 z-score
Strand = TTAGATATCGGATTTCGATTAGTGCTA; result = 4.52 z-score
Strand = TCAGATTTTTTTTCCTAACTGTGCTAG; result = 0.716 z-score
Strand = TTTGATCTCAGTCTCGATTAGTGCTAG; result = 1.08 z-score

Sample 2
Target: Ras GTPase-activating protein-binding protein 1, full length (G3BP1, Homo sapiens, UniProt Q13283)
Sequence of UniProt Q13283 (whole entry, looked up): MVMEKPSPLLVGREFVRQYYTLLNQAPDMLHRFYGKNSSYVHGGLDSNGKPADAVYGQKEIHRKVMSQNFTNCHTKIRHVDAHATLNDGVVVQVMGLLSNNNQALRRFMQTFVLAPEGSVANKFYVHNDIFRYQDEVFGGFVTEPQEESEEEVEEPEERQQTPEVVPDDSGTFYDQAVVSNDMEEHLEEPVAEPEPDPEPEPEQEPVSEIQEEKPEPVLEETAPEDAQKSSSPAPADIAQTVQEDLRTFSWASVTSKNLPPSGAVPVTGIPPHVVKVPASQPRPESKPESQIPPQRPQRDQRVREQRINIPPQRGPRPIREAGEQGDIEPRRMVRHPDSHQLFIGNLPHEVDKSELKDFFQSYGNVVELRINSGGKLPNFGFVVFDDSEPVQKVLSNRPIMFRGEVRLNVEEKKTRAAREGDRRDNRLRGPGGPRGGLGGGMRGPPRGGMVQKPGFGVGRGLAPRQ
Method: RNA Bind-n-Seq
Form: RNA
Medium: in vitro
Tested at: 200 nM
Notes: whole 134-nt RNA, ends assumed
Together with: 150 mM KCl
Relative to: input library
Direction: higher = stronger binding
Measurement: log2 enrichment
Strand = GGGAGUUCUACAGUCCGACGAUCACCAUGCCGGUGGGCAUCUUUGGGAAGUGGGGCAAGGGGGGGAUAGGGAGGGGGGUAACACUUUGGGAACAGGUGGUCCCAGGUCGUUUCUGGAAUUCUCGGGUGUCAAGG; result = 1.49
Strand = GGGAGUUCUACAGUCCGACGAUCCACAGACAACACGCACCCACACAGACACAGAGGGAAGGGGUUGGGAAAAGGACAGGGUGCACAGCAGGGCGGGGUAGGACCCCAGCCCCUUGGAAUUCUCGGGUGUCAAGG; result = 1.2
Strand = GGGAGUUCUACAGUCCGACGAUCUCAAGUCCUGUGCUACACAUCGUAUGUACCGAAUCGGGGCCCGGCCCGGGCCCGGAAAGUAUUAUGUUACGCCGUUCGGAUCUGCACUUCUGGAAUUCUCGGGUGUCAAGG; result = -1.19
Strand = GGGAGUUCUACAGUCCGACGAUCCAAGUCCUGUGCUACACAUCGUAUGUACCGAAUCGGGGCCGGGGCCGGGGCCGGGAAAGUAUUAUGUUACGCCGUUCGGAUCUGCACUUCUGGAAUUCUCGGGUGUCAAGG; result = -0.902
Strand = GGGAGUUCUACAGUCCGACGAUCUGGAGCUGAAGAGCCAAGAGGCUCCGAGUCUGCAGCAGCAGCCAGACCAGUACCUGGAGCCCCAGUCCCACAAGGAGCUUGGAUGUGCGGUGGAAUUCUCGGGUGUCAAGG; result = -0.634
Strand = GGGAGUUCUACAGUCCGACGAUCUACAUUCUUUACCCCUUGUUUUAAUUUGAACCCCACCAUAUGGAUUUUUUUCCUUAAGAAAAUCUCCUUUUAGGAGAUCAUGGUGUCACAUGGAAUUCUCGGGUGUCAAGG; result = -0.199
Strand = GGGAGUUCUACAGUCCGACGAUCUGAUGAUAGUAGCAGAGAAGAUGAACAUACACAUACUAACAGUGUCACGAACUCCAGUAGUAUUGUGGACCUGCCCGUUCACCAACUCUCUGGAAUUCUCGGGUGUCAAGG; result = 0.205
Strand = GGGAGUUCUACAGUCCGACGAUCACCAUGCAGGGGGGCAUCUUUGGGAAGUGGGGCAAGGGGGGGAUAGGGAGGGGGGUAACACUUUGGGAACAGGUGGUCCCAGGUCGUUUCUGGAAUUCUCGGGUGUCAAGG; result = 1.45
Strand = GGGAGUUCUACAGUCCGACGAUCUCAAGUCCUGUGCUACACAUCGUAUGUACCGAAUCGGGUGGGAAAGGGUUUGGGAAAGUAUUAUGUUACGCCGUUCGGAUCUGCACUUCCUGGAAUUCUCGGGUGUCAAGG; result = 0.881
Strand = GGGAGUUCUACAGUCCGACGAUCUAACUUUAGAGGAGGAUCUGAUGGAUAUGGCAGCGGACGUGGAUUUGGGGAUGGCUAUAAUGGGUAUGGAGGAGGACCUGGAGGUGGCAAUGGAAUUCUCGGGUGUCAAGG; result = 0.366
Strand = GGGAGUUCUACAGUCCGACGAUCUCCUCAAGUCCUGUGCUACACAUCGUAUGUACCGAAUCGGCGGGGCGGCGGGAAAGUAUUAUGUUACGCCGUUCGGAUCUGCACUUCCAGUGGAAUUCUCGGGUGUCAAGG; result = 0.116
Strand = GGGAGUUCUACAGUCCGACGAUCCACAGACAACACGCACCCACACAGACACAGAGGGAAGGGGUUGGGAUGGGGACAGGGUGCACAGCAGGGCGGGGUAGGACCACAGCCCCUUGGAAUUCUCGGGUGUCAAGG; result = 1.86
Strand = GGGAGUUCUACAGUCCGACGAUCUGGGAGGUGGAUUUUGUUUAUUUUUUUAGCUCAUUUCCAGGGGUGGGAAUUUUUUUUUAAUAUGUGUCAUGAAUAAAGUUGUUUUUGAAAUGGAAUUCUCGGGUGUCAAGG; result = -0.488
Strand = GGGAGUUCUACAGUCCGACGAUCAAGUCCUGUGCUACACAUCGUAUGUACCGAAUCGGGAGGGAAAAAAAGGGUUUGGGAAAGUAUUAUGUUACGCCGUUCGGAUCUGCACUUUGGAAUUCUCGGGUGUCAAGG; result = 0.177

Sample 3
Target: CCND2, cyclin fold, Cln2 fusion (human)
Method: yeast growth competition, sequencing
Medium: yeast
Notes: weak parent motif
Relative to: not given
Direction: higher = stronger binding
Measurement: normalised enrichment score
Parent: SCAPER docking peptide (human); SNARRSLNFGGST; partner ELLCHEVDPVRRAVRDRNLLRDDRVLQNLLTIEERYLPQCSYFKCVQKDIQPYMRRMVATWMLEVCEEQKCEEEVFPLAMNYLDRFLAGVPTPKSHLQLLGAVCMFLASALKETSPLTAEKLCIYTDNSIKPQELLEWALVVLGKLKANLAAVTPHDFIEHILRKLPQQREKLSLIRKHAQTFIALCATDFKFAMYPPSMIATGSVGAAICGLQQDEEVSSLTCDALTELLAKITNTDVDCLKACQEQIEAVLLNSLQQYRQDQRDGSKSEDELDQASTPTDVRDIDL
Substitution = SNARRGLNFGGST [S6G]; result = 0.417
Substitution = SNARRSGNFGGST [L7G]; result = 0.0399
Substitution = SNARRSENFGGST [L7E]; result = -0.113
Substitution = SNPRRSLNFGGST [A3P]; result = 0.213
Substitution = SNARRPLNFGGST [S6P]; result = 0.399
Substitution = SNARRSLNNGGST [F9N]; result = -0.465
Substitution = LNARRSLNFGGST [S1L]; result = 0.354
Substitution = SNAKRSLNFGGST [R4K]; result = 0.394
Substitution = SNARRSLNFGGAT [S12A]; result = 0.625
Substitution = RNARRSLNFGGST [S1R]; result = 0.0708
Substitution = SNARRSLSFGGST [N8S]; result = 0.766
Substitution = SNARRSLNPGGST [F9P]; result = 0.0691
Substitution = SNARQSLNFGGST [R5Q]; result = 0.327
Substitution = SNARRSLPFGGST [N8P]; result = 0.257
Substitution = SNARRSLNFGGSY [T13Y]; result = 0.345
Substitution = INARRSLNFGGST [S1I]; result = 0.181
Substitution = SNFRRSLNFGGST [A3F]; result = 0.0859
Substitution = SNARRSLNFGDST [G11D]; result = 0.588
Substitution = SNARRSLNFGGNT [S12N]; result = 0.878

Sample 4
Target: RNA binding protein fox-1 homolog 2, RRM domain, GST-SBP tag (RBFOX2, Homo sapiens, UniProt O43251-10, residues 100-194)
Method: RNA Bind-n-Seq
Form: RNA
Medium: in vitro
Tested at: 365 nM
Notes: natural RNA segment, single round, ends assumed
Relative to: no-protein control
Direction: higher = stronger binding
Measurement: RBNS enrichment (R)
Target sequence (chain): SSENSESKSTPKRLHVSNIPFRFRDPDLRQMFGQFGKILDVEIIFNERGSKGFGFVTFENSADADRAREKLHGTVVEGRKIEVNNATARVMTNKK
Strand = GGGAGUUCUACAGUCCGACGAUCUGCGGCAAGGUCCCAGCGGUCGCUGGGAGACAGAAGGUUUUGUGCCCUGCUGUAUCAUAAAGCACACACUUAGCGCUCUGGAGCCGGACGGUGGCUCCACCACUUCCGCAUGGAAUUCUCGGGUGCCAA; result = 0.778
Strand = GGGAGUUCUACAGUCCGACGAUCCUAGGAAGGAGAGGCCCUUGCCUGCUAUAACCAUGCCUAGAGUGCCUGUCCUCCAGUAUUGCACCUGUAGCCGGAGCUAGGGCCACCCCAGUGCAGGGGCAAAGCAAACCUGGAAUUCUCGGGUGCCAA; result = 0.889
Strand = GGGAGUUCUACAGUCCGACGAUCUUUUUCUAUACUGAAUACCCUUUGAGAUUUGUGUGGGACAUGGGUCCAUGUGGGUUUAGUGACAGAGAAGAGUUCCUCCAAGGACUCUUGGAGAGGGGCCACAUCUGAGGUGGAAUUCUCGGGUGCCAA; result = 0.469
Strand = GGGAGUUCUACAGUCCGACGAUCAGUUCUAGGGAGUGAGACAUUUUUGGGAGCAGAGGAAAACUCUGCUGAUGUUCGGUCCUGGCAAACAUUGAGUUAUUUUGAGCUGUGAAGGCAGUCGUCUCUGUUACACAUGGAAUUCUCGGGUGCCAA; result = 0.706
Strand = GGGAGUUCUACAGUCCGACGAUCCCAUGAAGCCAGGCAGGACACAGUGCAGCUUGGGUGACAUCUGACCAUCACAGUACCAGCCACUGGUCACUCUGACCCUGCUUUGCCAAGAGUCCUUUCUCAGACAACUGUGGAAUUCUCGGGUGCCAA; result = 0.35
Strand = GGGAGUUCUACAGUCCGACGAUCUGCUGUUAAUACUUCCAUCCUCUUCCUUCCCAAAGAGCAGAUCCCAAGGCAUUUACUCCUUGGUCUGUCUCGCUUUAUCUGUCGCCCCUCCCAGCGCUGAGAGCCUCCCCUGGAAUUCUCGGGUGCCAA; result = 0.918
Strand = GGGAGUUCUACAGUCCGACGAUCUUCCCAAAUUAACAAAGCAAACUGAAAUAAUACCUUGAAUAACAGGUUGCCUGUGGUCUCUGUCAUCCUCGUUUCUCUUCUGAAAUGAAUUUCCACCUCUGCCUUUAAGGUGGAAUUCUCGGGUGCCAA; result = 0.611
Strand = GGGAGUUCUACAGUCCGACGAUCUCAUUAGAAUUGAAUUCAGUUUCUCUUAGAAUAUAAUCAGGUAUAAACCUAAGUUAAACUUUUUCCCAAACAAGGAGCAUCCAAAGACACAGUGACUUGAGCUAUAGAUAUGGAAUUCUCGGGUGCCAA; result = 0.582
Strand = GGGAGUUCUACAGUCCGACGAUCCCCAUUACCUAGAUGGCACCUCCUUUGGUGAAACCACGGCCAAUGUUCCUUAGCUGCACCAGGCCCGAAGCUGUUCCCAUGCUUGAGCUUCCAUGGGGAGGAUGCUGAGUUGGAAUUCUCGGGUGCCAA; result = 1.09
Strand = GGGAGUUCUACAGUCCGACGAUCGUAGAAUAUACUAAUAAUCUGUGCCAACUCUACCUUCCCACUUUUACCUCUGACAUCAUUCUUUUUUUCUGAAAGGGGUAAUAAUUCUAGUUUUGAUAGACUCUGAGGAUUGGAAUUCUCGGGUGCCAA; result = 0.376
Strand = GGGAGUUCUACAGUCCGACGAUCGCAGGAGGACUCUUGCAGGGUUUUGUAAGCAGCGAUCUAGUUUCAUUAAAAAAAAAAGCUACACAGUAAACAGUCAGCUUCUUGUGUCUGUCUGCCAGAAACCCUGACUGUGGAAUUCUCGGGUGCCAA; result = 0.487
Strand = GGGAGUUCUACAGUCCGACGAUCACUCAAGGCUUCUUAUUUUUCUUCUUUUCUAAAUGCUCUUGGACAUUAUUGGGCUUGCAGAGUUCCCUUAUUCUGGGGCUACAAUGCUUUUAUCGUUCCAAGCUUCAUCUUGGAAUUCUCGGGUGCCAA; result = 0.472

Repeated from above (sample 3):
Substitution = SNARRSENFGGST [L7E]; result = -0.113
Substitution = SNARRSLNFGGNT [S12N]; result = 0.878
Substitution = SNARRSLNFGDST [G11D]; result = 0.588
Substitution = INARRSLNFGGST [S1I]; result = 0.181
Substitution = RNARRSLNFGGST [S1R]; result = 0.0708
